Results collected from several papers.
Protocols differ between the studies behind these lines.

O=C(Oc1nsnc1N1CCOCC1)N1CCOCC1
stability (DMSO; 5 days): stable

O=S([O-])c1ccccc1N=Cc1ccccc1[O-].[Cu+2].c1c[nH]cn1
stability (UV-visible spectroscopy; water; 0 to 24 h): stable

CC[C@H](C)[C@H](NC(=O)CNC(=O)[C@H](Cc1ccc(O)cc1)NC(=O)[C@H](CO)NC(=O)[C@H](Cc1ccc(O)cc1)NC(=O)[C@@H](NC(=O)[C@H](CC(=O)O)NC(=O)[C@H](CO)NC(=O)[C@H](CCC(N)=O)NC(=O)[C@H](Cc1ccccc1)NC(=O)[C@H](CO)NC(=O)[C@H](Cc1ccccc1)NC(=O)[C@@H]1CCCN1C(=O)[C@H](CC(N)=O)NC(=O)[C@H](CC(N)=O)NC(=O)[C@H](CC(=O)O)NC(=O)[C@H](CCC(N)=O)NC(=O)[C@@H]1CCCN1C(=O)[C@H](CCCNC(=N)N)NC(=O)[C@H](CCCNC(=N)N)NC(=O)[C@H](CCCNC(=N)N)NC(=O)[C@H](CCC(N)=O)NC(=O)[C@H](CCCNC(=N)N)NC(=O)[C@H](CCCNC(=N)N)NC(=O)[C@H](CCCCN)NC(=O)[C@H](CCCCN)NC(=O)[C@H](CCCNC(=N)N)NC(=O)CN)C(C)C)C(=O)N[C@H](C(=O)N[C@@H](CC(C)C)C(N)=O)C(C)C
stability time (mass spectrometry; PBS; 37 °C): ≥ 4 h

O=C(N=P12CN3CN(CN(C3)C1)C2)c1ccccn1.[Cl][Pt][Cl]
stability time (NMR; DMSO; room temperature): > 168 h

CC[C@H](C)[C@@H]1NC(=O)[C@H]([C@@H](C)O)NC(=O)[C@H](CO)NC(=O)[C@H](CCSC)NC(=O)[C@H](CCCNC(=N)N)NC(=O)[C@@H]2CCCN2C(=O)[C@H](CC(=O)O)NC(=O)CNC(=O)[C@@H]2CSSC[C@@H]3NC(=O)[C@H]([C@@H](C)O)NC(=O)[C@H](CCCCN)NC(=O)[C@@H]4CCCN4C(=O)[C@H](CSSC[C@H](NC(=O)[C@H](C(C)C)NC(=O)[C@H](CC(N)=O)NC(=O)[C@H](CCC(N)=O)NC(=O)[C@@H]4CCCN4C(=O)[C@H]([C@@H](C)CC)NC(=O)[C@H](CCCNC(=N)N)NC(=O)[C@H](CC(=O)O)NC(=O)[C@H](CCCNC(=N)N)NC(=O)[C@@H](N)CSSC[C@@H](C(N)=O)NC(=O)[C@H](CCCCN)NC(=O)CNC3=O)C(=O)N[C@@H](CCC(=O)O)C(=O)N[C@@H](CCC(N)=O)C(=O)N[C@@H](CCSC)C(=O)N[C@@H](CCCCN)C(=O)N[C@@H](CCCCN)C(=O)N[C@@H](CC(N)=O)C(=O)NCC(=O)N[C@@H](CCCCN)C(=O)N2)NC(=O)[C@H](CCC(N)=O)NC(=O)[C@H](CC(C)C)NC(=O)[C@H](CCC(=O)O)NC(=O)[C@H](C)NC1=O
stability (100% human serum; 40 µM, up to 24 h, 37 °C): stable

O=C(N=P12CN3CN(CN(C3)C1)C2)c1cccc[c]1[Pd]([Br])([PH]12CN3CN(CN(C3)C1)C2)[PH]12CN3CN(CN(C3)C1)C2
stability duration (DMSO-d6): > 2 days

[CH3][Ti+2][O]C(=O)c1ccc([S][Au][PH](c2ccccc2)(c2ccccc2)c2ccccc2)cc1.c1cc[cH-]c1.c1cc[cH-]c1
stability time (solid in air and CDCl3; room temperature): ≥ 120 h

O=C(Oc1nsnc1N1CCOCC1)c1ccccc1
stability time (aqueous solution): ≥ 2 h

CC[C@H](C)[C@H](NC(=O)[C@H](Cc1c[nH]c2ccccc12)NC(=O)[C@H](CCCNC(=O)c1ccc2c(c1)C1(OC2=O)c2ccc(O)cc2Oc2cc(O)ccc21)NC(=O)CNC(=O)[C@H]1CCCN1C(=O)[C@@H](NC(=O)[C@H](CCCNC(=N)N)NC(=O)[C@@H](NC(=O)[C@H](Cc1c[nH]c2ccccc12)NC(=O)[C@H](CCCN)NC(C)=O)C(C)C)C(C)C)C(=O)N[C@@H](CCCNC(=N)N)C(=O)N[C@@H](CCC(N)=O)C(N)=O
stability ratio (OPM-2 cell lysate; reference: compound over unstructured degron peptide): 20 fold

C1=CCCC=CCC1.C1=CCCC=CCC1.[Cl][Hg-]([Cl])[Cl].[Cl][Hg-]([Cl])[Cl].[Pt+][c]1ccccc1P(=Nc1ccccc1)(c1ccccc1)c1ccccc1.[Pt+][c]1ccccc1P(=Nc1ccccc1)(c1ccccc1)c1ccccc1
stability time (UV-vis spectroscopy; DMSO:PBS 1:99): 24 h

CSCC[C@@H]1NC(=O)[C@H](CCC(=O)O)NC(=O)[C@H](CC(C)C)NC(=O)[C@H](CC(C)C)NC(=O)[C@H](CCCCN)NC(=O)[C@H](CC(=O)O)NC(=O)[C@H](CC(=O)O)NC(=O)[C@H](CC(N)=O)NC(=O)[C@H](CC(=O)O)NC(=O)[C@@H]2CSSC[C@@H]3NC(=O)[C@H]([C@@H](C)O)NC(=O)[C@H](C(C)C)NC(=O)[C@@H]4CCCN4C(=O)[C@H](CSSC[C@H](NC(=O)[C@H](CC(=O)O)NC(=O)[C@H](Cc4ccccc4)NC(=O)[C@H](CC(N)=O)NC(=O)[C@H](CCCCN)NC(=O)[C@H](CCC(=O)O)NC(=O)[C@H](CC(=O)O)NC(=O)[C@H](C)NC(=O)[C@@H](NC(=O)[C@H](Cc4c[nH]cn4)NC(=O)[C@@H](N)CCC(=O)O)CSSC[C@@H](C(N)=O)NC(=O)[C@H](Cc4ccccc4)NC(=O)CNC3=O)C(=O)N[C@@H](CCCNC(=N)N)C(=O)N[C@@H](CCCNC(=N)N)C(=O)N[C@@H](CO)C(=O)N[C@@H](CC(C)C)C(=O)N[C@@H](CCCNC(=N)N)C(=O)N[C@@H](CC(N)=O)C(=O)NCC(=O)N[C@@H](CC(=O)O)C(=O)N2)NC(=O)[C@H](Cc2ccc(O)cc2)NC(=O)[C@H](Cc2ccc(O)cc2)NC(=O)CNC1=O
stability (100% human serum; 40 µM, up to 24 h, 37 °C): stable

CC[C@H](C)[C@H](NC(=O)[C@@H]1CCCN1C(=O)[C@H](CCCNC(=N)N)NC(=O)[C@H](CC(=O)O)NC(=O)[C@H](CCCCN)NC(=S)Nc1ccc2c(c1)C(=O)OC21c2ccc(O)cc2Oc2cc(O)ccc21)C(=O)N[C@@H](Cc1ccccc1)C(=O)N[C@@H](CCC(N)=O)C(=O)N[C@@H](CC(C)C)C(=O)N[C@@H](CC(N)=O)C(=O)N[C@H](C(=O)N[C@@H](CO)C(=O)N[C@@H](Cc1ccc(O)cc1)C(=O)N[C@@H](Cc1c[nH]c2ccccc12)C(=O)N[C@@H](CCC(=O)O)C(=O)N[C@@H](CCSC)C(=O)NCC(=O)N[C@@H](C)C(=O)O)[C@@H](C)O
stability (SDS-PAGE; human corneal epithelial lysate; concentration not given, 2 h): stable

CC[C@H](C)[C@H](NC(=O)[C@H](CCCNC(=N)N)NC(=O)[C@H](CCCNC(=N)N)NC(=O)[C@H](CC(C)C)NC(=O)[C@H](Cc1ccccc1)NC(=O)CNC(=O)CNC(=O)[C@@H](N)Cc1ccc(OC(C(=O)O)c2ccccc2[N+](=O)[O-])cc1)C(=O)O (stereo partly drawn)
stability in dark (room temperature): > 48 h

CC(C)C[C@@H](NC(=O)[C@@H](CCCCN)NC(=O)CNC(=O)CNC(=O)[C@@H]1CSSC[C@H](N)C(=O)NCC(=O)N[C@@H](CCCNC(=N)N)C(=O)N[C@@H](CCCNC(=N)N)C(=O)N[C@@H](C)C(=O)NCC(=O)NCC(=O)N[C@@H](CO)C(=O)N1)C(=O)N[C@H](C)C(=O)N[C@H](CCCCN)C(=O)N[C@H](CC(C)C)C(=O)N[C@H](C)C(=O)N[C@H](CCCCN)C(=O)N[C@H](CCCCN)C(=O)N[C@H](CC(C)C)C(=O)N[C@H](C)C(=O)N[C@H](CCCCN)C(=O)N[C@H](CC(C)C)C(=O)N[C@H](C)C(=O)N[C@H](CCCCN)C(=O)O
stability (mass spectrometry; saline or water; up to 7 days): stable

C[C@@H](O)[C@H](NC(=O)[C@H](CCC(=O)O)NC(=O)[C@H](Cc1ccccc1)NC(=O)[C@H](Cc1c[nH]c2ccccc12)NC(=O)[C@H](CCCCN)NC(=O)[C@H](CCCCN)NC(=O)[C@H](CCCCN)NC(=S)Nc1ccc2c(c1)C(=O)OC21c2ccc(O)cc2Oc2cc(O)ccc21)C(=O)N[C@@H](Cc1c[nH]c2ccccc12)C(=O)N[C@@H](Cc1ccccc1)C(=O)N[C@H](C(=O)N[C@@H](CCC(=O)O)C(=O)N[C@@H](Cc1c[nH]c2ccccc12)C(=O)N1CCC[C@H]1C(=O)N[C@@H](CCCCN)C(=O)N[C@@H](CCCCN)C(=O)N[C@@H](CCCCN)C(=O)N[C@@H](CCCCN)C(=O)O)[C@@H](C)O
stability (SDS-PAGE; human corneal epithelial lysate; concentration not given, 2 h): stable

Repeated from above:
O=S([O-])c1ccccc1N=Cc1ccccc1[O-].[Cu+2].c1c[nH]cn1
stability (UV-visible spectroscopy; water; 0 to 24 h): stable

CC[C@H](C)[C@H](NC(=O)CNC(=O)[C@H](Cc1ccc(O)cc1)NC(=O)[C@H](CO)NC(=O)[C@H](Cc1ccc(O)cc1)NC(=O)[C@@H](NC(=O)[C@H](CC(=O)O)NC(=O)[C@H](CO)NC(=O)[C@H](CCC(N)=O)NC(=O)[C@H](Cc1ccccc1)NC(=O)[C@H](CO)NC(=O)[C@H](Cc1ccccc1)NC(=O)[C@@H]1CCCN1C(=O)[C@H](CC(N)=O)NC(=O)[C@H](CC(N)=O)NC(=O)[C@H](CC(=O)O)NC(=O)[C@H](CCC(N)=O)NC(=O)[C@@H]1CCCN1C(=O)[C@H](CCCNC(=N)N)NC(=O)[C@H](CCCNC(=N)N)NC(=O)[C@H](CCCNC(=N)N)NC(=O)[C@H](CCC(N)=O)NC(=O)[C@H](CCCNC(=N)N)NC(=O)[C@H](CCCNC(=N)N)NC(=O)[C@H](CCCCN)NC(=O)[C@H](CCCCN)NC(=O)[C@H](CCCNC(=N)N)NC(=O)CN)C(C)C)C(=O)N[C@H](C(=O)N[C@@H](CC(C)C)C(N)=O)C(C)C
stability time (mass spectrometry; PBS; 37 °C): ≥ 4 h
